Measurements from different studies.
Numbered parts are unrelated; each lists some results of a single study.

Study 1
Target: RNA binding protein fox-1 homolog 2, RRM domain, GST-SBP tag (RBFOX2, Homo sapiens, UniProt O43251-10, residues 100-194)
Technique: RNA Bind-n-Seq
Molecule type: RNA
Matrix: in vitro
Tested at: 365 nM
Setting: natural RNA segment, single round, ends assumed
Reference: no-protein control
Reading: higher = stronger binding
Constant ends, left off below: GGGAGUUCUACAGUCCGACGAUC … UGGAAUUCUCGGGUGCCAA
Target sequence (chain): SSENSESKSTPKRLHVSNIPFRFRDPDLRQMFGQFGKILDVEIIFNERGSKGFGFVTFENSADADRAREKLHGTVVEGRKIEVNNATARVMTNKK
Strand	RBNS enrichment (R)
UAUAUAUAUCUCAGGUUUUUAGACUGGUUGACAGAACAAAGCCUGUUUUAACAGUGGAACCUUAAAGAGCACACCUACACCAAACCACCAAAACCACGCCGAGCACAGUG	0.386
CUCCCUUAAAAUCUGGUCUGCUUAAUUUCAAUUUUUGUAUCCAUUCUAAUGAUGCAACAUAGCACAGAAUUACUGUGAUCAGUUUCUCAUCCAUACUGGGAAUUGUCUUG	0.943
CUGAUUGAAGUCUGUUUUGCUGUGUCUGGUUAUGUUGUCUGCACUUUUAUGAAAUCACUACAAUAGAUCUACGUUGGAAAUAACUAUCAAUUUGUAAAGAAAUUUUUAUU	1.26
GAGUACUUCGGCAAAUUCACUUUUUGUCUCACCUUCAUCAUAUGGCUCAGUGGUUAAGAGUACCUGUUGCUGUUGCAGAGGACCUGGAUUGGAUUCCCAGCACCCACUCA	0.448
GUUUGGCUUAAACGUCAAAGCCGUGACAAUUUGUUCUUUGAUGUGAUUGUAUUUCCAAUUUCUUGUUCAUGUAAGAUUUCAAUAAAACUCAAAAAUCUAUUCAAAACAUC	0.537
CUCUACUGCUGAUUCUCACCUUGCUGGAAUUAUGCGUAACCAUCUCUACCAUAGCCAUGUGGUGCAAUGCAAACUGCUGUAAUUCAAGAGAGGAAAUUUCCUCACCUCCC	0.329
AACUACUAGUUAACAUCAUGCUUGAUCAACAUUUGCUCCUAGUUAUCACCAUUAAAUUAAGACCUUAAUGGUAAACUGAGGUUACUGAUGCAUCAUCACAUUUAAGUAAA	0.522
CUCCAAAUACCAUUCAAGUGCCUCUUGUUGAAAGAUUCCUUCAUGGUGGAAGGGGGUGCAUGUAUGUGUUAGUGUUUGUGUGUGUGUGUGUGUCUGUCUGUUCGUCUGUC	11.4
CCCCUCAUUUCCCAUGGAUGGUGGGACCCCAUUAUUCUCUCAUCUCGGCAUUCAGGGAACAGUUUCCUUAGCGGCCCCUGGUCACAUGUCAUCGGGCUGGGCAGGAAGCG	0.465
CUAUUUAAAAAAUAGGAAGCUGCUUUUAUAUUUAAUAAUAAAAGAAGUGCACAAGCUGCCACGUGUGGUCAUGGGAAAACUUGUUUUUGGGGCGUGGGCAACAACAGUAG	0.418
ACCUAGAAGACACCAUAAUCAGUUUAUUUACAACAACCACAUCAUCAGUUGCUUUUGUCGAACAUCAGCAUCAUGUUUUAAAUGUUGUGGUCCUGGAUGCCCAGCUGGGC	0.275
GGAAACCAAACCCUCCCACAGUUCCCAAGCAGACACUGGAAGCAGAGGCUUCUCACCCUUCCUGCUUUUUCACCACAAUCACCUUGAGCUCGUCCCUUGGACUAGAGUCU	0.327

Study 2
Target: Histone acetyltransferase KAT6A, both winged helices, GST fusion (KAT6A, Homo sapiens, UniProt Q92794, residues 1-181)
Technique: protein binding microarray
Molecule type: double-stranded DNA, one strand shown
Matrix: in vitro
Tested at: not given
Setting: 8-mer, flanks averaged, mean of 2 arrays, mostly near background
Reference: not given
Reading: higher = stronger binding
Residues (chain): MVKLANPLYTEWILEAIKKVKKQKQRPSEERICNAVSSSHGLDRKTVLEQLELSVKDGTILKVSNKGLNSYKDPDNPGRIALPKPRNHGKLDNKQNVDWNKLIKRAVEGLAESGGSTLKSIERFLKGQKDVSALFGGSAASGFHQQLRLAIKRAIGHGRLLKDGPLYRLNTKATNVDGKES
Strand	E-score
AGCTGGAT	-0.236
ATAGTCTG	-0.126
AGCCATCC	-0.0982
ACCACTAG	-0.169
CAGACGAC	-0.0852
CTAAAATA	-0.118
AAGCTATC	-0.0463
TAGACCAA	-0.18
CTCGCTTC	0.0498
AGCCGGAT	0.0985
AGCGGTGG	0.154
GCGCTTCA	0.229
ATACTTTC	-0.0398
CGGGATTA	0.202
AAATCCCC	-0.143
CCAGCGCG	0.292
CAAATCAG	-0.0721
GTGGTGGA	-0.127
CACAACAC	0.0393
AGAAAGAT	-0.168
GACCTGGA	-0.155
GGATTCAA	-0.105
CGCTTCGA	0.154
GGGTATCA	-0.0711

Study 3
Target: Hepatocyte nuclear factor 3-alpha (Foxa1, Mus musculus, UniProt P35582, residues 1-468, full length assumed)
Technique: EMSA with sequencing
Molecule type: double-stranded DNA, one strand shown
Matrix: in vitro
Tested at: 10 and 20 nM
Setting: whole designed probe, mean of two concentrations, ends assumed
Reference: negative control set to 0
Reading: higher = stronger binding
Constant ends, left off below: GTGAGCGGTGCCCATTGATGGGGAAC … TTTCACTGGGATCGTGGGGAC
Construct (chain): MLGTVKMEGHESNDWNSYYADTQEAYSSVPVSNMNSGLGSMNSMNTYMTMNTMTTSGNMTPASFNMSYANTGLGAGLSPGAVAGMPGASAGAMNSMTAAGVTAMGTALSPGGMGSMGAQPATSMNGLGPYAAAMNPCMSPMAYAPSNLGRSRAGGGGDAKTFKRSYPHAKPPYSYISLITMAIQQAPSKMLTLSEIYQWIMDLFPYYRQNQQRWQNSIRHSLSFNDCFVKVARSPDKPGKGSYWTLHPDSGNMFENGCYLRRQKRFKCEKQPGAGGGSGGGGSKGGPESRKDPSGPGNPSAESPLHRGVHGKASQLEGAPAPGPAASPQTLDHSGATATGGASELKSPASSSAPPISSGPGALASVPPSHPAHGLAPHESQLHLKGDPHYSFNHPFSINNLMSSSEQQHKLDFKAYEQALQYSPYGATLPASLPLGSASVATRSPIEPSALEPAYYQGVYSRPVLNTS
Strand	normalised bound fraction [ratio]
TCGTGATTTGATATCTTGGTAATTTAGACTAGAGCCAGAGCAGTTTTTAAAGAGAATCTTTTCTGATCATTTTAAGCAGCATGATAAATTCTAAGTAAACATAAATTTTGAATAATTACAGAGTGGGCATGAGCTCTTCCTTTCTTTGTTCCTCTACATGCAAGAAACTGGATGCCAAGCCCAACCTCTGGAT	0.363
ATCCACGAACCTGGCCCTGTCTGGTAACCACAGTGAACCATCGCAAGATACAGCACTATGTGCCCAGTTGGGCTGGTAATGTCACACAAATGTGTCAACACTGGCACATCCTTAATGACTCACAAGTGTACTTGTTTTTGGAGAGGGACTAGACCTTCATCCTTGAGGTGAAGAAGATTTTCTCTCCAGGGTG	0.0519
AAAGGGTATTGTTTCAAAGCAGGGCTAGCAGAAGGCAGTAGACAGAGGGTGTTCGCTGTCAGAGTCTGGGGCGCTGCTGCAGGCTCACCTGGCAGAGTACTCTGCTCCCATTCACCTAGTGAAATCGTGTAAATAATGAAGTGCACACATTGCATAACAAACAGGAACTCTTCTGATCCAAAGAGGTGGCATT	0.246
GTAGGGGTAATGAAAAACTTCTTGTGCAAGCGGCCATTAATCAGCAGTGTAACATTGCATAACGTGCTCCAAAGGAGCTCTCATGGGATCAGAGTACACAGCTGCATAATGCAGGCCAGTGTCTGTGCCTCCTGCTGACCTTTTCCAATGCAGAACTCGAACCATGTGATGCATGCTTCTTGCCAAGTCACTT	-0.0423
AAAACCAAAAACCAAAGCTTATTCACTCTTAATCTAAGTAAGCAAGTTTGGATAGACCCCCACTAAGTATGAGCATAGTCTTTAATGCTACAATGTAAACAAATATACTTATGTCATATAAACTACTTTATTATTCTGGCAAGTTGGGAACCATTGATATAGGATTTGTGAGACTCAATAATAATAGACTTTT	0.533
AACTAACCCAGTCCCAGGAGAACTGCATTAATCCCTTTGTGAGGGCGAAGTCCCTATGACTCACCTCTTAAAGGTCCTATTACCTCTCCATACAGATGACATTGGCAATTAAATTTCAACATGAGTTTTGGTAGAGACAAACCACATCCAAACCATAGCAATAGTAAAGGTGTCCCCTGCTCCCCTCCTCCAC	-0.0682
TGGCAGAGCCAAGTTTACCAGTGTGTTGGCAGGAGTTACTGTTCCTTCTTGTGTGATTTCTTTGAGGACATTGCACAGATTATACAGAGAGTGTAATCTTAGCTGTTGATTTAACTAAACACTGTTTTTTGTTCCCCGTCTCTCACAGCCATGGTAAATAGCCTAATATTTAAGCTCAGAGGCTTTGATGTGA	0.14
AGACTGGCTGCCCGGCTGGAAGGTGGGGCCCTGGCACGCGAGGACCTCATGTGTGGAGGCACTGGCTTGGGGGGTGCTCCCAGTGGCTCTAGAGTCATCTTGACAGGCATCGAATGGCTCCTGTTTCTCTGGCAGAGTTGGGGCAGAGCCAGGCTTGGCCACGCTGGGCTCTAAGGGGCTGTCATTTTGCCCA	-0.0905

Study 4
Target: Prothrombin, mature alpha-thrombin (F2, Homo sapiens, UniProt P00734)
Technique: aptamer microarray, sandwich
Molecule type: DNA with 2'F-ANA
Matrix: in vitro
Tested at: 200 nM
Setting: whole 15-mer aptamer, many near background
Together with: Cy3 exosite-II aptamer, 400 nM
Reading: higher = stronger binding
Strand: GGTTGGTGTGGTTGG
Modification	mean fluorescence intensity
2'F-ANA at 1 9 10 11 12 14 15	47 a.u.
2'F-ANA at 1 3 4 6 7 9 13 14	59.1 a.u.
2'F-ANA at 1 2 3 6 7 10 11 12 14 15	52.9 a.u.
2'F-ANA at 1 3 6 7 9 12 13 14	90.7 a.u.
2'F-ANA at 1 2 4 5 6 7 9 11 14	200 a.u.
2'F-ANA at 1 2 4 6 8 9 10 11 13 14	217 a.u.
2'F-ANA at 2 3 11 12 13 14	472 a.u.
2'F-ANA at 1 4 10 12	60 a.u.
2'F-ANA at 1 2 5 8 9 10 12 13 14 15	45.9 a.u.
2'F-ANA at 1 3 4 6 7 10 11 15	257 a.u.
2'F-ANA at 1 4 8 11 14	50.9 a.u.
2'F-ANA at 2 6 7 9 12 13	459 a.u.
2'F-ANA at 1 2 3 8 10 13	62.4 a.u.
2'F-ANA at 2 3 5 6 12 13 15	148 a.u.
2'F-ANA at 4 5 8 11 15	55 a.u.
2'F-ANA at 4 5 7 8 9 13 14 15	44.2 a.u.
2'F-ANA at 2 4 5 6 7 11	72.7 a.u.
2'F-ANA at 1 4 5 7 8 9 11 13 15	50.3 a.u.
2'F-ANA at 4 6 7 9 10 12	107 a.u.
2'F-ANA at 1 2 3 4 9 12 15	375 a.u.
2'F-ANA at 1 4 6 10 14 15	46.8 a.u.
2'F-ANA at 1 2 6 7 8 9 11 13 14	54.5 a.u.
2'F-ANA at 2 3 6 7 10 11 12 13 14 15	217 a.u.
2'F-ANA at 2 6 7 9 10 11 12 14 15	87.6 a.u.
2'F-ANA at 1 3 4 5 8 9 10 11 14 15	51.2 a.u.

Excerpt of the above (study 4):
Modification	mean fluorescence intensity
2'F-ANA at 1 2 4 6 8 9 10 11 13 14	217 a.u.
2'F-ANA at 2 3 11 12 13 14	472 a.u.
2'F-ANA at 2 4 5 6 7 11	72.7 a.u.
2'F-ANA at 1 2 3 4 9 12 15	375 a.u.
2'F-ANA at 1 2 3 8 10 13	62.4 a.u.
2'F-ANA at 2 6 7 9 10 11 12 14 15	87.6 a.u.
2'F-ANA at 1 4 5 7 8 9 11 13 15	50.3 a.u.
